Results gathered from unrelated publications.
Each numbered part is a random draw from the data of one study; scales do not carry over between parts.
Chain of UniProt P49760 (whole entry, looked up): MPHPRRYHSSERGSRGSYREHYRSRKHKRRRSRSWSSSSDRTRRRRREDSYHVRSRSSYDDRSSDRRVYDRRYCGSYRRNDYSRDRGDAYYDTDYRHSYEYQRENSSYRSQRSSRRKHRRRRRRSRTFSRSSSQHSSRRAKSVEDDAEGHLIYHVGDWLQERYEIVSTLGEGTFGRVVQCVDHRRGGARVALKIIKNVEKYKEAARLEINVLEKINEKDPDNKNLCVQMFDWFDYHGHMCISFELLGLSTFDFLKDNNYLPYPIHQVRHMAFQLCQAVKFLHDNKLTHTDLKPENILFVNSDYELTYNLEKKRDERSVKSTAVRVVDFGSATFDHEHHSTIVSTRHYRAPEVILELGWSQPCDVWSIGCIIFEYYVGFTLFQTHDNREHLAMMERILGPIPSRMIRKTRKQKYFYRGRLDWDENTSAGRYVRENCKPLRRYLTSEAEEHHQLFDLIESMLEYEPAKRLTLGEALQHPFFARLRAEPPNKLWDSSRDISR
Chain of UniProt P51817 (whole entry, looked up): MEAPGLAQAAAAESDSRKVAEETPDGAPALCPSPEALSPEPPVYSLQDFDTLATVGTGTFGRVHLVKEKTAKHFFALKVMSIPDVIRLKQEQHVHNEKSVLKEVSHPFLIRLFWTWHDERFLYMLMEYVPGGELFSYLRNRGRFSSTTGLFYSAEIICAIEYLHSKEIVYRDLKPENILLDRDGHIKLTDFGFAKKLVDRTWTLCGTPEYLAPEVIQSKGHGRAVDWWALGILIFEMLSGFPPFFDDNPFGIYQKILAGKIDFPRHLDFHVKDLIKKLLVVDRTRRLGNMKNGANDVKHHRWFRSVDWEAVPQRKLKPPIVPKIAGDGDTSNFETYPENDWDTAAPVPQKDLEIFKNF
Chain of UniProt P0C1S8 (whole entry, looked up): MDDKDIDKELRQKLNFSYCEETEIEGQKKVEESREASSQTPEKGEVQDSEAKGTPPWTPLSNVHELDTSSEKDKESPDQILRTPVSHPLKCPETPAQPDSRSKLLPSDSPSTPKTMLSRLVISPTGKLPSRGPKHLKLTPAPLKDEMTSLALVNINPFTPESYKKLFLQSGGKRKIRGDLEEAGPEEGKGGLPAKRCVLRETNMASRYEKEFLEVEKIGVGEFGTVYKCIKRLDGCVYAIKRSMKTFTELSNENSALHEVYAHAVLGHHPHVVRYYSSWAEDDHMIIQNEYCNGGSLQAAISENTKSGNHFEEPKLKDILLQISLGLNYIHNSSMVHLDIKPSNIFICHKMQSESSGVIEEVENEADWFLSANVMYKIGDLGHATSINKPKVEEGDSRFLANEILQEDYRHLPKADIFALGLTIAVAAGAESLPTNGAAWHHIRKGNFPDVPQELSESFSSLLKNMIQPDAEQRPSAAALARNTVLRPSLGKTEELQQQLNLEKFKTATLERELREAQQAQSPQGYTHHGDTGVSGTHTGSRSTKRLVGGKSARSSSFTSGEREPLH
Chain of UniProt P16591 (whole entry, looked up): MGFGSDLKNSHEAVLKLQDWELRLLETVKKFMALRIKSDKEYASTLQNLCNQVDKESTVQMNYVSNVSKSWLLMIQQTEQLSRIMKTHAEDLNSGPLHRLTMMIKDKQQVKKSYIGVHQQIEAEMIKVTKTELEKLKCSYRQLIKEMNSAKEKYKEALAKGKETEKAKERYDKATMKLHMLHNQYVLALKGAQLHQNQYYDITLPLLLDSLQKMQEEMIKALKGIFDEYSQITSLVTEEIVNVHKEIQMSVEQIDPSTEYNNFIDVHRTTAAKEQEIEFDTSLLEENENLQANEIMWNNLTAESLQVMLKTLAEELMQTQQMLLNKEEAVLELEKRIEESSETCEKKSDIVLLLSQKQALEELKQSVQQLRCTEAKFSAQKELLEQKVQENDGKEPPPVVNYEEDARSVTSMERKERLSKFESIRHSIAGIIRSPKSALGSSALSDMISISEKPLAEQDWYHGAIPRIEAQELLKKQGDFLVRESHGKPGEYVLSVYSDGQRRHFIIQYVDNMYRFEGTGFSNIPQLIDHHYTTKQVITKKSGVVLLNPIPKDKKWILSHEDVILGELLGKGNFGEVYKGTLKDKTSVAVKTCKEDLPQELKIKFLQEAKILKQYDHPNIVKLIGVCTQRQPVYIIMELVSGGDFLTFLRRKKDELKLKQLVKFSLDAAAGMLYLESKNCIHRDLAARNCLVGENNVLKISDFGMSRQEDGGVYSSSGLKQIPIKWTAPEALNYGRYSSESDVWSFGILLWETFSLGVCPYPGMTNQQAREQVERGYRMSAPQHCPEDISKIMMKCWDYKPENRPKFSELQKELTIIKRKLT
Chain of UniProt P19525 (whole entry, looked up): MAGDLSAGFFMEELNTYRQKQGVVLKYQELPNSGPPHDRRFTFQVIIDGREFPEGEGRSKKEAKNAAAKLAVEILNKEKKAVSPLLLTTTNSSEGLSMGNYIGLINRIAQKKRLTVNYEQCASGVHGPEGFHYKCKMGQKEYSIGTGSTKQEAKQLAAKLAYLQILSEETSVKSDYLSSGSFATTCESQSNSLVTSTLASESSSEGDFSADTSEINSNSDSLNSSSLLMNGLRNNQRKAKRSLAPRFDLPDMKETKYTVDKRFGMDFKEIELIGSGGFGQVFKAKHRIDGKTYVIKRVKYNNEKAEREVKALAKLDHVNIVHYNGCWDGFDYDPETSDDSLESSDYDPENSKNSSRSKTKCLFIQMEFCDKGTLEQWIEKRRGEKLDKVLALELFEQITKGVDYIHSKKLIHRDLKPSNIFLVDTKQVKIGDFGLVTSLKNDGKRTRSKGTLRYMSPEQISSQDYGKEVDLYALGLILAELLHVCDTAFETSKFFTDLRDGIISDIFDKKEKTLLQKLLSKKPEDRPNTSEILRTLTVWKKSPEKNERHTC
Chain of UniProt P27037 (whole entry, looked up): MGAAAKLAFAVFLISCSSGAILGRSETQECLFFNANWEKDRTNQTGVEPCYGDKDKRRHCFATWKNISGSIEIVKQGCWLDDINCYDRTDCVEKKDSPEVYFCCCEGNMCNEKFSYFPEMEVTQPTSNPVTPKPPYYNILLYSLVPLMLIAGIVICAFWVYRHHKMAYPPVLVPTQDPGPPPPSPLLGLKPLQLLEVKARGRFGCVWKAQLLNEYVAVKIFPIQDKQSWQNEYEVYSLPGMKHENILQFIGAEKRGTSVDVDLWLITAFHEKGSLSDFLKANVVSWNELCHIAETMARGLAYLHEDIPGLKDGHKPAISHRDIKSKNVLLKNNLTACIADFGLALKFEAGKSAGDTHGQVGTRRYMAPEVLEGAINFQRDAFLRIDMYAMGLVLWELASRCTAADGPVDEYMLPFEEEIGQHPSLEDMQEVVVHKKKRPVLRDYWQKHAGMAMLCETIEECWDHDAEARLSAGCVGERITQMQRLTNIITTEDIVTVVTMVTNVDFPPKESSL

Series 1
SMILES: CC(C)n1cnc(-c2ccc(F)cc2)c1-c1ncc(C(=O)Nc2ccc(N3CCN(C)CC3)cc2)[nH]1
Method: phase 2a trial
Host: idiopathic pulmonary fibrosis patients
Endpoint: patients with pneumonia
all arms pooled, grade 4 emergent event: 0%
all arms pooled, grade 1 emergent event: 0%
30 mg once daily, grade 5 emergent event: 0%
all arms pooled, grade 5 emergent event: 0%
30 mg once daily, grade 4 emergent event: 0%
60 mg once daily, grade 2 emergent event: 0%

Series 2
Structure (SMILES): Cc1c(NC(=O)c2cc(C(N)=O)nc3cc(F)ccc23)c(C(F)(F)F)nn1Cc1ccc(C#N)cc1
Effect on: cell-free assay
Method: competition with immobilised ligand
Tested at: 1 µM
Endpoint: remaining binding
Interferon-induced, double-stranded RNA-activated protein kinase (EIF2AK2, Homo sapiens, UniProt P19525): 100%
Tyrosine-protein kinase Fer (FER, Homo sapiens, UniProt P16591): 99%
Wee1-like protein kinase 2 (WEE2, Homo sapiens, UniProt P0C1S8): 100%
Cyclin-G-associated kinase (GAK, Homo sapiens, UniProt O14976): 95%
Dual specificity protein kinase CLK2 (CLK2, Homo sapiens, UniProt P49760): 89%
Activin receptor type-2A (ACVR2A, Homo sapiens, UniProt P27037): 97%
cAMP-dependent protein kinase catalytic subunit PRKX (PRKX, Homo sapiens, UniProt P51817): 92%
Tyrosine-protein kinase ABL1, phosphorylated (ABL1, Homo sapiens, UniProt P00519, Y253F): 80%

Series 3
Target: Ephrin type-B receptor 4 (EPHB4, Homo sapiens, UniProt P54760)
Chain of UniProt P54760 (whole entry, looked up): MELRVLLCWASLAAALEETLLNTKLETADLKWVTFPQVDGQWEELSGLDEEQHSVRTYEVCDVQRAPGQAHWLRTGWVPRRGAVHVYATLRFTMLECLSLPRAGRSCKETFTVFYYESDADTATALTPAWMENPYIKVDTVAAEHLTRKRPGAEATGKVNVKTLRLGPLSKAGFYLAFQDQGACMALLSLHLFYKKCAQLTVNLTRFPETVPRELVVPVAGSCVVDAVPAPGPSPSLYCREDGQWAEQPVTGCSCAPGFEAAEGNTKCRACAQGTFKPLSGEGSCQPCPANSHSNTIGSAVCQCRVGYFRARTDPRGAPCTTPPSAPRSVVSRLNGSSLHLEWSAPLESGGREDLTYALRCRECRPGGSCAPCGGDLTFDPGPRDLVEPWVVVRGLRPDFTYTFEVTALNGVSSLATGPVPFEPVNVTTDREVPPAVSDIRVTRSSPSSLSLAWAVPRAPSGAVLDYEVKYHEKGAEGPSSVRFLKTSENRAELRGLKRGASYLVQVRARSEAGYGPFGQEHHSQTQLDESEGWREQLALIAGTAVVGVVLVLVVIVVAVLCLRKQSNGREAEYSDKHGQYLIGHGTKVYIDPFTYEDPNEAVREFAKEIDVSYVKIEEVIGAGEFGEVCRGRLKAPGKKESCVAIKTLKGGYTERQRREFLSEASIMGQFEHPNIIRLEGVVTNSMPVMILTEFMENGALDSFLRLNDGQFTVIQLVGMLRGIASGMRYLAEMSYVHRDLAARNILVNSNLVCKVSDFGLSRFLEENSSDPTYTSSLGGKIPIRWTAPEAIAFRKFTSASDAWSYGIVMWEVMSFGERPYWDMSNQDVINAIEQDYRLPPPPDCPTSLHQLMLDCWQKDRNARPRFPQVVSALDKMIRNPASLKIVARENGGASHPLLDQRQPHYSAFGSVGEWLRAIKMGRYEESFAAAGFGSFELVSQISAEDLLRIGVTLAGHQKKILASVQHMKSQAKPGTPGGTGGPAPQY
Effect on: enzyme activity
Mode: inhibitor
Tested at: 0.5 µM
Relative to: control
Endpoint: remaining activity
Nc1ncnc2n[nH]c(Nc3ccc(F)cc3)c12: 87.8%
C#Cc1cccc(Nc2ncnc3cc(OCCOC)c(OCCOC)cc23)c1: 79.2%
COc1ccc(OC)c2c(=S)c3ccccc3[nH]c12: 91.1%
Nc1[nH]nc2nc3ccccc3nc12: 84.9%
CC(C)[C@H](CO)Nc1nc(Nc2cc(N)cc(Cl)c2)c2ncn(C(C)C)c2n1: 58.4%
O=S(=O)(c1cccc2cnccc12)N1CCCNCC1: 107%
CO[C@H]1C[C@@H]2CC[C@@H](C)[C@@](O)(O2)C(=O)C(=O)N2CCCC[C@H]2C(=O)O[C@H]([C@H](C)C[C@@H]2CC[C@@H](O)[C@H](OC)C2)CC(=O)[C@H](C)/C=C(\C)[C@@H](O)[C@@H](OC)C(=O)[C@H](C)C[C@H](C)/C=C/C=C/C=C/1C: 89.5%
O=C1NC(=O)C(c2cn(CCCn3ccnc3)c3ccccc23)=C1Nc1ccccc1: 87.9%
CCOC(=O)c1c(C)[nH]c(/C=C2\C(=O)Nc3ccccc32)c1C: 89.5%
COc1cc2ncnc(Nc3ccc(Oc4ccccc4)cc3)c2cc1OC: 85.5%
Nc1ccc2ncnc(NCCc3ccc(Oc4ccccc4)cc3)c2c1: 104%
Cn1c2ccccc2c2c3c(c4c5ccccc5n(CCC#N)c4c21)CNC3=O: 96.3%

Series 4
Target: Beta-1 adrenergic receptor (ADRB1, Homo sapiens, UniProt P08588)
Chain of UniProt P08588 (whole entry, looked up): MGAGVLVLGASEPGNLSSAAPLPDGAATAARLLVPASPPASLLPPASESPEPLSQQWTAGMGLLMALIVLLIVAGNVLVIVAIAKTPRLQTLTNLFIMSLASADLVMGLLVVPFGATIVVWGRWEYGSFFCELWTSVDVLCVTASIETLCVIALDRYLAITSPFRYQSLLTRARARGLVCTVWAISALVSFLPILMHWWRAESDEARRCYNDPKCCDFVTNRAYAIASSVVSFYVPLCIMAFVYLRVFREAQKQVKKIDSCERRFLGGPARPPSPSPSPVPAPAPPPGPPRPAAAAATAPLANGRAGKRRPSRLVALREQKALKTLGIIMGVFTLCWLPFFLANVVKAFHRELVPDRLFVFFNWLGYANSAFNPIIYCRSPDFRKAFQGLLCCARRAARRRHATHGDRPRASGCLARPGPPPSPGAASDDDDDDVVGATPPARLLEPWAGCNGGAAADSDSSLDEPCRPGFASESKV
Mode: agonist
Endpoint: EC50
c1ccc2nc(C3=NCCN3)ccc2c1: ≥ 100 µM
Cc1noc(C)c1-c1cc2cc(CNC3CCOCC3)oc2c(NC2CCN(C)CC2)n1: ≥ 100 µM
COc1ccccc1C(=O)Nc1ccc2ccccc2n1: ≥ 100 µM
C[C@@H]1CN(CC(=O)Nc2ccc3c(c2)Cc2cccc(-c4cc(=O)cc(N5CCOCC5)o4)c2S3)C[C@H](C)O1: ≥ 100 µM
COC(=O)C1CCN(CC(O)COc2cccc(CN3CC=C(C)CC3)c2)CC1 (stereo not shown): ≥ 100 µM
